# Assay results of several laboratories.
# Numbered parts are unrelated; each lists some results of a single study. Changes are numbered by the printed parent chain.

# Study 1 — target: CCNA1, cyclin fold, Cln2 fusion (human); method: yeast growth competition, sequencing; medium: yeast; notes: weak parent motif; baseline: not given; direction: higher = stronger binding
# Starting sequence: PKN2 docking peptide (human); VSAVRKLDFSDTM; partner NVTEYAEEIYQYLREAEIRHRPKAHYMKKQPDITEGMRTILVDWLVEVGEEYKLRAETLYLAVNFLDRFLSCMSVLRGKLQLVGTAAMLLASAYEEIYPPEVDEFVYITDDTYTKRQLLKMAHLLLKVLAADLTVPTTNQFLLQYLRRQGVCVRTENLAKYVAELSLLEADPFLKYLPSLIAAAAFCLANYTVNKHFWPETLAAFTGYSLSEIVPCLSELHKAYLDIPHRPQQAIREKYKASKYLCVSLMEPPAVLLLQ
Change,normalised enrichment score
R5E,0.119
S10Y,0.857
R5D,0.0107
F9A,0.0384
S10D,1.17
S2Q,1.03
K6H,0.849
L7A,0.265
A3M,0.105
S2K,0.968
L7Y,0.0062

# Study 2 — method: universal PBM; form: double-stranded DNA, one strand shown; medium: in vitro; tested at: not given; direction: higher = stronger binding
# Target: Sal-like protein 4, full length isoform B (SALL4, Homo sapiens, UniProt Q9UJQ4-2, residues 1-616)
# Notes: 8-mer, flanks averaged, mean of replicates
Strand,E-score
AGTGGATG,-0.088
CTATGAGC,0.0889
AGTCGGAG,-0.247
CTTAGTCA,-0.0386
CCTTAACC,-0.138
AGTGAGAA,0.0631
AGTACTGG,-0.192
AAGCGATC,-0.00225
CCCTATAC,-0.0445
AACTACAG,0.0299
CTTGCTCC,0.0401
AGCGGATC,-0.184
TGGCAGAA,-0.137

# Study 3 — method: DHFR PCA, dose-response; medium: yeast; notes: Hill fit, mean, not affinity; together with: (+)-ABA, dose series; direction: lower = more sensitive
# Target: ABI1, truncated, D143A, DHFR fusion (Arabidopsis thaliana, UniProt P49597)
# Starting sequence: PYL1, truncated, DHFR fusion (Arabidopsis thaliana, UniProt Q8VZS8); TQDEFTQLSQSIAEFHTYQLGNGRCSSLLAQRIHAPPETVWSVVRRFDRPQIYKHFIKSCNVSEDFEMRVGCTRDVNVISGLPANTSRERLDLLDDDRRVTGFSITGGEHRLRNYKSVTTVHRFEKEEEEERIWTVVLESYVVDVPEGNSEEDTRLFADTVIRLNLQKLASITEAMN
Change,ABA EC50
R123D,4.59 µM
R163W,87.7 µM
G102S,2.3 µM
D95C,10.8 µM
T101C,6.28 µM
L20Y,3.06 µM

# Other studies, line by line
Molecule,target,test,system,conditions,how to read,quantity,value
"PhoQ, residues 284 288 289 292 302 303 QWGLFV","PhoP, residues 12 14 15 18 19 NMSFL (Escherichia coli, UniProt P23836)","Sort-seq, measured: YFP reporter",E. coli,"PhoQ-PhoP variant library, together with: 10 µM Mg2+","baseline: high Mg2+ state, higher = stronger signaling",fold induction,2.53

# A few entries again (study 1):
Change,normalised enrichment score
S2K,0.968
S10Y,0.857
